Assay results gathered from unrelated publications.
Protocols differ between the studies behind these lines. “And” joins repeats or separate records; there may be more than shown. ± gives the spread as reported.

N#[11C]c1ccc(-c2csc(NN=C3CCCC3)n2)cc1
radioactivity uptake (C57BL/6 mice, male, pancreas; intravenous, 3 MBq, 30 min): 1.53 ± 0.26 %ID/g

CSCC[C@H](NC(=O)CNC(=O)[C@H](CCCCN)NC(=O)[C@H](CC(C)C)NC(=O)[C@@H]1CCCN1C(=O)[C@H](CO)NC(=O)[C@H](Cc1c[nH]cn1)NC(=O)[C@H](Cc1c[nH]c2ccccc12)NC(=O)[C@H](CCCNC(=N)N)NC(=O)[C@H](CC(C)C)NC(=O)[C@H](CCCNC(=N)N)NC(=O)[C@H](Cc1c[nH]c2ccccc12)NC(=O)[C@H](CS)NC(=O)CCCCCNC(=O)CN1CCN(CC(=O)O)CCN(CC(=O)O)CCN(CC(=O)O)CC1)C(=O)O [copper-64 labelled]
tumour-to-muscle ratio (C57BL/6J mice, B16-F10 tumour; intravenous, 1.85 MBq, 0.5 h; relative to: tumour over muscle): 5.96

COc1cnc2cccc(N3CCc4c(cc(Cn5ccnc5)cc4-c4cn(C)nc4C(F)(F)F)C3=O)c2c1
body weight (BALB/c nude mice, MV4-11 xenograft; intraperitoneal, 75 mg/kg, day 14): 21.4 g and 22.4 g and 22 g and 23.7 g

CSCC[C@H](N)C(=O)N[C@@H](C)C(=O)N[C@@H](Cc1c[nH]c2ccccc12)C(=O)N[C@@H](Cc1c[nH]cn1)C(=O)N[C@@H](CC(=O)O)C(=O)N[C@@H](CC(=O)O)C(=O)N[C@@H](CCC(=O)O)C(=O)N[C@@H](CCC(=O)O)C(=O)N[C@@H](Cc1ccccc1)C(=O)N[C@@H](C)C(=O)N[C@@H](CCCNC(=N)N)C(=O)N[C@@H](CCCNC(=N)N)C(=O)N[C@@H](CCCNC(=N)N)C(=O)N[C@@H](CCCNC(=N)N)C(=O)NCCCCCC(=O)NCCCCC(NC(=O)CCCCCNC(=O)[C@H](CCCNC(=N)N)NC(=O)[C@H](CCCNC(=N)N)NC(=O)[C@H](CCCNC(=N)N)NC(=O)[C@H](CCCNC(=N)N)NC(=O)[C@H](C)NC(=O)[C@H](Cc1ccccc1)NC(=O)[C@H](CCC(=O)O)NC(=O)[C@H](CCC(=O)O)NC(=O)[C@H](CC(=O)O)NC(=O)[C@H](CC(=O)O)NC(=O)[C@H](Cc1c[nH]cn1)NC(=O)[C@H](Cc1c[nH]c2ccccc12)NC(=O)[C@H](C)NC(=O)[C@@H](N)CCSC)C(=O)NCCCCC(NC(=O)C(CCCCNC(=O)CCCCCNC(=O)[C@H](CCCNC(=N)N)NC(=O)[C@H](CCCNC(=N)N)NC(=O)[C@H](CCCNC(=N)N)NC(=O)[C@H](CCCNC(=N)N)NC(=O)[C@H](C)NC(=O)[C@H](Cc1ccccc1)NC(=O)[C@H](CCC(=O)O)NC(=O)[C@H](CCC(=O)O)NC(=O)[C@H](CC(=O)O)NC(=O)[C@H](CC(=O)O)NC(=O)[C@H](Cc1c[nH]cn1)NC(=O)[C@H](Cc1c[nH]c2ccccc12)NC(=O)[C@H](C)NC(=O)[C@@H](N)CCSC)NC(=O)CCCCCNC(=O)[C@H](CCCNC(=N)N)NC(=O)[C@H](CCCNC(=N)N)NC(=O)[C@H](CCCNC(=N)N)NC(=O)[C@H](CCCNC(=N)N)NC(=O)[C@H](C)NC(=O)[C@H](Cc1ccccc1)NC(=O)[C@H](CCC(=O)O)NC(=O)[C@H](CCC(=O)O)NC(=O)[C@H](CC(=O)O)NC(=O)[C@H](CC(=O)O)NC(=O)[C@H](Cc1c[nH]cn1)NC(=O)[C@H](Cc1c[nH]c2ccccc12)NC(=O)[C@H](C)NC(=O)[C@@H](N)CCSC)C(N)=O (stereo partly shown)
tissue distribution (C57BL/6 mouse female, skull; dose not given, 3 h; relative to: total): 17.4% and 16.5% and 17.2%

O=C(O)c1ccc(-c2nc(-c3ccccc3Cl)c3sccn23)cc1
plasma concentration (mouse, plasma; oral, dose not given, day 10, no 5-FU): 13.2 ng/mL

C=Cc1c(C)c2cc3nc(c(CC(=O)[O-])c4[n-]c(cc5nc(cc1[n-]2)C(C)=C5CC)c(C)c4C(=O)[O-])C(CCC(=O)[O-])C3C.[Cu+2].[Na+].[Na+].[Na+] (stereo not shown)
haemoglobin (Wistar rat, female; oral, 500 mg/kg daily, 28 days): 14.2 ± 0.79 g/dL

Cc1ccccc1-c1ccc(-c2nc(-c3ccc(CN(C)CCCC(=O)O)c([18F])c3)no2)cc1C(F)(F)F
tracer uptake (rat, blood; 30 min): 0.09 %ID/g

CC(C)[C@@H]1NC(=O)CNC(=O)[C@H](CC(N)=O)NC(=O)[C@H](CCCNC(=N)N)NC(=O)[C@H](Cc2ccc(O)cc2)NC(=O)[C@H](C(C)C)NC(=O)[C@@H](NC(=O)[C@@H](NC(=O)[C@H](CC(N)=O)NC(=O)[C@H](Cc2c[nH]c3ccccc23)NC(=O)[C@H](C)NC(=O)[C@H](Cc2ccccc2)NC(=O)CNC(=O)[C@H](CCCCN)NC(=O)[C@H](Cc2ccccc2)NC(=O)[C@H](Cc2ccccc2)NC(=O)[C@H](CCCCN)NC(=O)OCC2c3ccccc3-c3ccccc32)C(C)C)CSSC[C@@H](C(=O)N[C@@H](Cc2c[nH]cn2)C(=O)N[C@@H](CCCNC(=N)N)C(=O)N[C@@H](CCCNC(=N)N)C(=O)N[C@@H](C)C(=O)N[C@@H](CC(N)=O)C(N)=O)NC(=O)[C@H](C(C)C)NC(=O)[C@H](CCCNC(=N)N)NC1=O
monocytes (ICR mice, blood; intraperitoneal, 10 mg/kg, day 5): 3.31 ± 0.55%

O=C1NC2(CC2)COc2ncc(F)cc2[C@H]2COCCN2c2ccn3ncc1c3n2
organ-to-body weight ratio (Sprague-Dawley rat, male, liver; oral, 5 mg/kg/day, 4 weeks dosing, end of recovery): 2.77 ± 0.183%

CSCC[C@@H]1NC(=O)[C@H](C(C)C)NC(=O)[C@H](CCCNC(=N)N)NC(=O)CNC(=O)[C@@H]2CCCN2C(=O)[C@@H](NC(=O)CNC(=O)[C@H](CO)NC(=O)CNC(=O)[C@H](CO)NC(=S)Nc2ccc(C[C@H]3CN(CC(=O)O)CCN(CC(=O)O)CCN3CC(=O)O)cc2)CSSC[C@@H](C(N)=O)NC(=O)[C@@H]2CCCN2C(=O)CNC(=O)[C@H](CCC(=O)O)NC(=O)[C@H](CC(=O)O)NC(=O)[C@H](CC(=O)O)NC(=O)CNC(=O)[C@H](CC(C)C)NC(=O)[C@H](Cc2c[nH]cn2)NC(=O)[C@H](CC(C)C)NC(=O)CNC(=O)[C@H](Cc2c[nH]cn2)NC1=O [copper-64 labelled]
half-life (dynamic PET; CD rat, myocardial infarction model, left ventricular blood pool; intravenous, 18.5 MBq, 5 to 60 min): 22.8 ± 4.2 min

CCCCCCCCCCCCCCCC(=O)N[C@@H](CCC(=O)NCCCC[C@H](NC(=O)[C@H](CC(=O)O)NC(=O)[C@H](CO)NC(=O)[C@@H](NC(=O)[C@H](Cc1ccccc1)NC(=O)[C@@H](NC(=O)CNC(=O)[C@H](CCC(N)=O)NC(=O)[C@H](C)NC(=O)[C@@H](Cc1ccc(O)cc1)NC(C)=O)[C@@H](C)O)[C@@H](C)O)C(=O)N[C@@H](CO)C(=O)N[C@@H](CCCCN)C(=O)N[C@@H](Cc1ccc(O)cc1)C(=O)N[C@@H](CC(C)C)C(=O)N[C@@H](CC(=O)O)C(=O)N[C@@H](CCC(=O)O)C(=O)N[C@@H](CCCNC(=N)N)C(=O)N[C@@H](C)C(=O)N[C@@H](C)C(=O)N[C@@H](CCC(N)=O)C(=O)N[C@@H](CC(=O)O)C(=O)N[C@@H](Cc1ccccc1)C(=O)N[C@H](C(=O)N[C@@H](CCC(N)=O)C(=O)N[C@@H](Cc1c[nH]c2ccccc12)C(=O)N[C@@H](CC(C)C)C(=O)N[C@@H](CC(C)C)C(=O)N[C@@H](CCC(=O)O)C(=O)NCC(=O)NCC(=O)N1CCC[C@H]1C(=O)N[C@@H](CO)C(=O)N[C@@H](CO)C(=O)NCC(=O)N[C@@H](C)C(=O)N1CCC[C@H]1C(=O)N1CCC[C@H]1C(=O)N1CCC[C@H]1C(=O)N[C@@H](CO)C(N)=O)C(C)C)C(=O)O
AUC(0-inf) (male Wistar rat, plasma; intravenous, 0.02 mg/kg): 453 ng·h/mL

CC[C@H](C)[C@H](NC(=O)[C@H](CCCCN)NC(=O)CNC(=O)[C@H](CC(C)C)NC(=O)[C@H](Cc1ccccc1)NC(=O)[C@H](CCCCN)NC(=O)[C@H](CO)NC(=O)[C@H](Cc1ccccc1)NC(=O)[C@H](Cc1c[nH]c2ccccc12)NC(=O)[C@H](CCC(N)=O)NC(=O)[C@@H](NC(=O)[C@H](Cc1ccccc1)NC(=O)CCCCCNC(=O)CN1CCN(CC(=O)O)CCN(CC(=O)O)CCN(CC(=O)O)CC1)C(C)C)C(=O)N[C@@H](CCC(=O)O)C(=O)N1CCC[C@H]1C(=O)N[C@@H](CC(=O)O)C(=O)N[C@H](C(=O)N[C@@H](CO)C(=O)N[C@@H](CCC(N)=O)C(=O)N[C@H](C(=O)N[C@@H](CCC(N)=O)C(=O)N[C@@H](CC(=O)O)C(=O)N1CCC[C@H]1C(=O)N[C@@H](CC(N)=O)C(=O)N[C@@H](CC(=O)O)C(=O)N[C@@H](CCC(N)=O)C(=O)N[C@@H](Cc1ccc(O)cc1)C(=O)N[C@@H](CCC(=O)O)C(=O)N1CCC[C@H]1C(=O)N[C@@H](Cc1ccccc1)C(=O)O)C(C)C)C(C)C [copper-64 labelled]
SUVmean (dynamic PET; mouse, CT26 tumour, untreated, tumour; intravenous, 100 µCi/mouse, 2580 s): 1.11 SUV

O=C([O-])CNC(=O)CN1CCN(CC(=O)NCC(=O)[O-])CCN(CC(=O)NCC(=O)[O-])CCN(CC(=O)NCC(=O)[O-])CC1.[177Lu+3]
biodistribution (Sprague-Dawley rat, large intestine; intravenous, dose not given, 2 h): 0.016 ± 0.039 % injected dose/g

C#Cc1c(F)ccc2cc(O)cc(-c3ncc4c(N5CC6CCC(C5)N6C(=O)OC(C)OC(=O)COCCOC)nc(OC[C@@]56CCCN5C[C@H](F)C6)nc4c3F)c12 (stereo partly shown)
compound remaining (chemical stability; simulated intestinal fluid; 1 µM, 30 min): 71.3%

COc1ccc([C@@H]2CC(=O)c3c(O)cc(O[C@@H]4O[C@H](CO)[C@@H](O)[C@H](O)[C@H]4O[C@@H]4O[C@@H](C)[C@H](O)[C@@H](O)[C@H]4O)cc3O2)cc1O
faecal excretion (male Sprague-Dawley rats, obese, faeces; oral, 100 mg/kg, 48 to 36 h): 22.2 ± 14 ng

CC(=O)NCCCC[C@@H]1NC(=O)[C@H](Cc2c[nH]c3c(C)cccc23)NC(=O)[C@H]([C@@H](C)O)NC(=O)[C@H](CC(N)=O)NC(=O)[C@@H](NC(C)=O)C(C)(C)SSC(C)(C)[C@@H](C(=O)N[C@@H](Cc2ccc(OCCN)cc2)C(=O)N[C@@H](Cc2ccc3ccccc3c2)C(=O)NC2(C(=O)N[C@@H](CCC(=O)O)C(=O)N[C@@H](CC(N)=O)C(=O)N[C@@H](Cc3cccnc3)C(=O)N(C)CC(N)=O)CCOCC2)NC1=O
blood to plasma ratio (human, blood; 0.013 µM, 2 h): 0.53 ± 0.02

CC(C)[C@H](NC(=O)[C@H](Cc1c[nH]c2ccccc12)NC(=O)[C@H](CCCNC(=N)N)NC(=O)[C@H](CCCNC(=N)N)NC(=O)[C@@H](NC(=O)[C@@H](NC(=O)[C@H](CCCNC(=N)N)NC(=O)[C@@H](NC(=O)[C@@H](NC(=O)[C@H](CCCNC(=N)N)NC(=O)[C@H](CCCNC(=N)N)NC(=O)[C@@H](NC(=O)[C@H](Cc1c[nH]c2ccccc12)NC(=O)[C@H](CCCNC(=N)N)NC(=O)[C@H](CCCNC(=N)N)NC(=O)[C@@H](NC(=O)[C@H](CCCNC(=N)N)NC(=O)[C@H](CCCNC(=N)N)NC(=O)[C@@H](NC(=O)[C@H](Cc1c[nH]c2ccccc12)NC(=O)[C@H](CCCNC(=N)N)NC(=O)[C@@H](N)CCCNC(=N)N)C(C)C)C(C)C)C(C)C)C(C)C)C(C)C)C(C)C)C(C)C)C(=O)N[C@@H](CCCNC(=N)N)C(=O)N[C@@H](CCCNC(=N)N)C(=O)O
organ weight (item: kidney; mice; intravenous, 30 mg/kg; relative to: body weight): 1.44%

CC(C)C[C@@H](NC(=O)[C@@H](CCCNC(=N)N)NC(=O)[C@@H](Cc1c[nH]cn1)NC(=O)[C@@H](Cc1c[nH]c2ccccc12)NC(=O)[C@@H](Cc1c[nH]cn1)NC(=O)[C@@H](Cc1ccccc1)NC(=O)[C@H](NC(=O)[C@@H](Cc1ccc(O)cc1)NC(=O)CNC(=O)CNC(=O)CCOCCOCCOCCNC(=O)CN1CCN(CC(=O)O)CCN(CC(=O)O)CC1)[C@H](C)O)C(=O)N[C@H](CC(N)=O)C(=O)N1CCC[C@@H]1C(=O)O [gallium-68 labelled]
absorbed dose (human female, from C57BL/6 mouse, osteogenic cells): 0.0182 ± 5.55e-05 mSv/MBq

CC(C)(C)C(=O)OCOP(=O)(OCOC(=O)C(C)(C)C)C1CCCN(O)C1=O (stereo not shown)
CC50 (SK-MEL-5): 12 µM

For quick reference, copied from above:
Cc1ccccc1-c1ccc(-c2nc(-c3ccc(CN(C)CCCC(=O)O)c([18F])c3)no2)cc1C(F)(F)F
tracer uptake (rat, blood; 30 min): 0.09 %ID/g

CC(C)[C@@H]1NC(=O)CNC(=O)[C@H](CC(N)=O)NC(=O)[C@H](CCCNC(=N)N)NC(=O)[C@H](Cc2ccc(O)cc2)NC(=O)[C@H](C(C)C)NC(=O)[C@@H](NC(=O)[C@@H](NC(=O)[C@H](CC(N)=O)NC(=O)[C@H](Cc2c[nH]c3ccccc23)NC(=O)[C@H](C)NC(=O)[C@H](Cc2ccccc2)NC(=O)CNC(=O)[C@H](CCCCN)NC(=O)[C@H](Cc2ccccc2)NC(=O)[C@H](Cc2ccccc2)NC(=O)[C@H](CCCCN)NC(=O)OCC2c3ccccc3-c3ccccc32)C(C)C)CSSC[C@@H](C(=O)N[C@@H](Cc2c[nH]cn2)C(=O)N[C@@H](CCCNC(=N)N)C(=O)N[C@@H](CCCNC(=N)N)C(=O)N[C@@H](C)C(=O)N[C@@H](CC(N)=O)C(N)=O)NC(=O)[C@H](C(C)C)NC(=O)[C@H](CCCNC(=N)N)NC1=O
monocytes (ICR mice, blood; intraperitoneal, 10 mg/kg, day 5): 3.31 ± 0.55%
